Measurements gathered from unrelated publications.
Each numbered part is a random draw from the data of one study; scales do not carry over between parts.

Study 1 — method: protein-binding microarray; molecule type: double-stranded DNA, one strand shown; sample: in vitro; concentration: not given; reading: higher = stronger binding
Target: Hepatocyte nuclear factor 3-beta, forkhead domain (FOXA2, Homo sapiens, UniProt Q9Y261, residues 142-269)
Setting: k-mer, scored over probes, only values ≥0.25
Construct (chain): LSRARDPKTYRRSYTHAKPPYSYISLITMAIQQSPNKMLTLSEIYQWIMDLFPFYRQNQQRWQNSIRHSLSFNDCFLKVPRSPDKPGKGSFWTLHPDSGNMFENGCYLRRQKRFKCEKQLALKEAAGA
Oligonucleotide	E-score
ATATTAAA	0.336
CGGTATAA	0.258
ACTAATAA	0.308
GCATTATA	0.299
GACATAAC	0.299
TATATCCA	0.302
CTATATAA	0.292
AATATTGA	0.328
AATTTATG	0.252
AATAATGT	0.324
CGTTGTTA	0.26
AGTAATAG	0.266
ATCTATAA	0.294
ATGTTTGC	0.27
ATCTTCAA	0.266
CAACAATG	0.286
ACGATGTA	0.301
AACACAAC	0.281
ATTTATAC	0.338
ACTGTTTG	0.287
ACTGTTTA	0.38
TATAAATA	0.331
GTATGATA	0.386
AACATATT	0.335
ATGTTACA	0.34

Study 2 — method: RNA Bind-n-Seq; molecule type: RNA; sample: in vitro; concentration: not given; relative to: input RNA pool; reading: higher = stronger binding
Target: RING finger protein unkempt homolog, zinc fingers 1-6, GST-SBP tag (UNK, Homo sapiens, UniProt Q9C0B0, residues 30-357)
UniProt Q9C0B0, sequence (30-357, looked up): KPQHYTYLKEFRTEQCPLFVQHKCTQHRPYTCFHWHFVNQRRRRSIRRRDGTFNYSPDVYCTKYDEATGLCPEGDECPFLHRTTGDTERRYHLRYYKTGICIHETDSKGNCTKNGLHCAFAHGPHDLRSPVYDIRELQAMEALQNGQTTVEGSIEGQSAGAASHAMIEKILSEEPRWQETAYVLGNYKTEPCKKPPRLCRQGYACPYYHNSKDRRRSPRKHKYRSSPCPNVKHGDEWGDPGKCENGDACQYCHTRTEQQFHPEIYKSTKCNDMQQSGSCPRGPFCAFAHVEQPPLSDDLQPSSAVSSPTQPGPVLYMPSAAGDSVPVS
Setting: RNA with constant flanks, human-mouse chimeric sites, ends assumed
All sequences stand within: GGGAGUUCUACAGUCCGACGAUC … CAACAGAGGAUUGAGCAUCA
Oligonucleotide	bound/input enrichment
CUGGCACUCUAUCAGAUAUAUUAAUUUUUUAAUGUAGAUAAAAUUUCAAAAAUGAAUGGCUACUUUACGUGAUAGAUUAGGGUUUUACUAUAUAUGUGUACAUAUGUAUAUAUAUAUAUA	3.12 ratio
GAGCGUCUUGCCCGCACUGGGAUCAUCGUGACCACUAGUGAGGCUGUCCUCCUACAGCUGGUAGCUGACAAAGACCAUCCAAAAUUCAAGGAAAUUCAGAACCUAAUUAAGGCGAGUGCC	0.256 ratio
GAGCCCAGCCGGCAGUUUGUAAAGGACUCCAUUCGGCUGGUUAAAAGAUGCACUAAACCCGACAGAAAAGAAUUCCAGAAGAUUGCCAUGGCUACAGCUAUAGGAUUUGCUAUCAUGGGA	0.19 ratio
UAAGUUAUUUUGUACAGCUUUGUAAAUUCUUAACAUUUUUAUAUUGCCAUGUUUAUUUUUUUUAGAUGCUUUAUUAAAUUAAGUACAUAGCUAAGGUAAUGAACAUCUUUUUCAGUAAUU	1.43 ratio
UUAAACACCAAGCUGAUGGACUCUGAUCUUGAUCUCUUCUCAGGCACGUGUGCCUUCUCUUAGUCCCUGUUUUCGGGAUGUUAUGAAUCUCAGUACUGUGGUUUGAAAGCACCAGCUUUG	0.191 ratio
GCCACCAAUUCCAGCCAACAUGACCCUUGCUGCCUACAAAGAGAAGAUGAAGGAGCUCCCGCUGGUGUCCUUGUUCUGCUCCUGCUUCUUGUCUGAUCCCCUGAAUAAGUCGUCCUACAA	0.347 ratio
UUUCUACUGCAGCAAACGAUGCUAAGAGUGAAGGAUCCUAAGAAGUCCCUGGAUUUUUAUACGAGGGUUCUUGGACUGACCCUCCUGCAGAAGCUUGACUUCCCUGCUAUGAAGUUUUCG	0.185 ratio
AUAGAUGAAAUUGAUGUAGAUCAGGAAGGAAUUGCUGAAAUGAUCCUGGAUGAAAAUGCUAUUGCUCAGGUCCCACGCCCUGGCACAUCUUUGAAGCUCCCUGGCACUAACCAAACAGGA	0.565 ratio
UGUGCAUAUGAUGCUUGAGAUGGUUUUUGCAGAUGCAGAAAUCGCUGCAAGGUAAUCCUAAUAGAGAAAAGUGGUAUUUUAAACCUUUGAAAUAAAUGGAUGUAACUGUACCUUGGUACA	1.01 ratio
GGACAUCUGUCAAAUUGUUAUGUUCCUGUGAAACAAGUGAACACUCUUCAUAUACUAAUCUGCUUGUACAUCUGUAUGAUAGAGAAAUGUAAAUAUGAAUAUAUUUACAAUGUGUCACUU	0.137 ratio
UACUCAACUUUCUUGCCACAUUUUGAAUUCCAAGACAUUAUUCCUCCAGAUGACUUCCUAACGAGUGAUGAAGAAGUAGAUUCCGUUUUAUUUGGAACUAUGAGAGGACAAGUUGUUGGA	0.214 ratio

Study 3 — method: RNA Bind-n-Seq; molecule type: RNA; sample: in vitro; concentration: 365 nM; relative to: no-protein control; reading: higher = stronger binding
Target: RNA binding protein fox-1 homolog 2, RRM domain, GST-SBP tag (RBFOX2, Homo sapiens, UniProt O43251-10, residues 100-194)
Setting: natural RNA segment, single round, ends assumed
All sequences stand within: GGGAGUUCUACAGUCCGACGAUC … UGGAAUUCUCGGGUGCCAA
Residues (chain): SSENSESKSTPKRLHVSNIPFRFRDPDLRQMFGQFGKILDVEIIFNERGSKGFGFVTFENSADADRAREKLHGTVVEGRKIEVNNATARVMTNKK
Oligonucleotide	RBNS enrichment (R)
UUUCAAGCAAGAAGCGGGCGGAGUAAACGCGUGUGACCACUUAAAGCUGCUUGUUAACAUGGAAGACUUCUCCACUCUCCCUUAGUGAGAACAAAUACACACUUGACAUG	0.416
CAGAGUACCCUUGAGAAUUGAAAUGUAUUUCGAUUAGUUGUCUUUAAUUAGCUAGCUAGAGUCAGUUGAUAUCUCUACCAAGCUGAAGCCUAGUACCUACGAAGCUAUUU	0.349
CAGACUCUGCGCUUUAUCUGUCUAUGGUGAAGGAUAGGGCGCAAUCACUUUAAUUGUAAUGAUAGAUAAAUAAGACAGGACAAACUACAGUUUGUCUCAGAGGAAUCCAA	0.465
ACUGUCAGGACAGAUUGAGUUAACCCCUCAAGCCAAGUCCCGGGUGUCAGGAACAGUUGUCCAUGCUCAGAGCCCUCAAGCCAUCCUUGGCCACUCUCACUCCAGUGCCC	0.233
CCAGGUUAAACAUUUGGAAUCUUAUAAUGUUACUUGCUUUUUGAUAGAUAAUAGUGAAAUAAAUUCAGCUUUGCCAUUGCUGGAGUUGUCAAAAUUCCACAGUAAUUAAA	0.739
GGUGGCCCGCAUGCUUGGGAGAGUUAAUAGGAAGAUUGAGUUCAAACGCUUAACCUUCUGUUAGCCAAUAUAUAAUUAAUGCAUGCUACUCCAUGAAUUUCUGCCUAUGA	3.45
GGGCUCUCUAGGGGCCUCCCCGCCCCAACAGCAAGCAGUUGUUAGCUCUUGGAACCCUCCAGAGGAAGAGGCAAGCGUUUGACUUCCCCUUUACCACCUGAGGCCUCCUU	0.19
UGUCCUGAAGUUCUAACUGCCGAGCCUUACCUUCAUAGAAGGUCUUCACUGCCAGAGUGGGCAUCUUGCAUAGUAAGGGAUUCCAGAUUAGAUAUGAGUUGAGCACCCUG	0.514
AGCCUCAUCCCCUAUACAGUUAGGAGCUCCCCACAUCUCUACCAAAACCCAGCACAUAAGUAUCUGCGUGGUCUAGCCUUUCAUCUCCGUAACAAGCCAGGGGACUCUUG	0.913
UAAUUUUUGUAUUUUUAAUAAAGACGGGGUUUCAUCAUGUUGGCCAGGGUGGUCUCGAUCUCUUGACCUCGUGAUCCGCCCGCCUCAGCAUCCCAAAGUGCUGGGAUUAC	0.299
CUUAUUUAAGUGUUAGACUUCCAUUCUGGCAAAAUCUUGCCUUAUCAGAAGACAUUGGAAAGAGGGAUUCCCUUUGGUGUUUGGUCUUCUACUUAGAAAAACCUAUUGCA	1.79
AUAUAGCAUUUGGUUUUUACCUCCUAGCAUAUGCUACUUGGUAUGUGAGGGUUUCAGUACAAAUGCUGCUGUCUAUUUCUGUGCACUUAACAAUGGAACCCAAACAGAAG	0.33

Study 4 — method: protein binding microarray; molecule type: double-stranded DNA, one strand shown; sample: in vitro; concentration: not given; relative to: not given; reading: higher = stronger binding
Target: Histone acetyltransferase KAT6A, both winged helices, GST fusion (KAT6A, Homo sapiens, UniProt Q92794, residues 1-181)
Setting: 8-mer, flanks averaged, mean of 2 arrays, mostly near background
Construct (chain): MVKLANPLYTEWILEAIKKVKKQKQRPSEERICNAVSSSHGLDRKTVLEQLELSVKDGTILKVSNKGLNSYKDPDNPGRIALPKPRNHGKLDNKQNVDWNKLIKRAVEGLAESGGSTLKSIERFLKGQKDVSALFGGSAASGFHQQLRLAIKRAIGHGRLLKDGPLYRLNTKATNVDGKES
Oligonucleotide	E-score
AGATGCAT	-0.165
ACGTTTCC	0.0732
AACATCGA	-0.0952
CTGCAGCA	-0.132
CAGACATC	-0.174
CAGCCGGG	0.00226
ATTGGAAC	-0.0286
TATCCAGA	-0.0451
CACTCGGC	0.211
CATATCCC	0.0561
CGTCGGCC	0.22
CTACTTTC	-0.0673
CCGAGTCC	0.0968
AGGAAGCG	0.0975
AACGAGGA	-0.189
GCCCGCAA	0.0994
ATGCTCGA	-0.0565
CACATCGA	-0.0642
CCGTTCGA	0.0329

Study 5 — method: protein-binding microarray; molecule type: double-stranded DNA, one strand shown; sample: in vitro; concentration: 250 nM; setting: 60-bp whole probe; added: salmon DNA 0.4 mg/ml; relative to: random background probes; reading: higher = stronger binding; all sequences stand within: GCCTAGCAC … GTCTTGATTCGCTTGACGCTGCTG
Target: Interferon regulatory factor 7, full length, phosphomimetic (IRF7, Homo sapiens, UniProt Q92985, residues 1-503, S101K/S471D/S472D/S475D/S476D/S477D/S483D/S484D/S487D)
UniProt Q92985, sequence (whole entry, unmodified, looked up): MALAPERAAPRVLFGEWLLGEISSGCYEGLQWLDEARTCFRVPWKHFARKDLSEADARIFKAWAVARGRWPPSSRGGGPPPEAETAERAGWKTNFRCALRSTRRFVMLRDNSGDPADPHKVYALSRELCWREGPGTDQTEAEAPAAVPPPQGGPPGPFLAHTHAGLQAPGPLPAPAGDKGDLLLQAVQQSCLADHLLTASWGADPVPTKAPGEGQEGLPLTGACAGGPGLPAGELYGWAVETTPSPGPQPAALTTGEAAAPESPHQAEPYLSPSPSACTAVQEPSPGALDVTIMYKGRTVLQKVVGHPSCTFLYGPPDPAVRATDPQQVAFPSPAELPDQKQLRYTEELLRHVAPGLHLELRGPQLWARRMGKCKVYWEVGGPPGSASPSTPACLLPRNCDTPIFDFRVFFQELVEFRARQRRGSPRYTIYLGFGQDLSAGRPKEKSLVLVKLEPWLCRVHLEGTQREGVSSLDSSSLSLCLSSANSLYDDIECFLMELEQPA
Oligonucleotide	log fluorescence
GACGGTTTCGGTATCGGGAAGTGCTAG	10.6 z-score
TCAGTTTTCTCCATGGAACTGTGCTAG	0.624 z-score
TCAGCTTTCATTTATTTACTGTGCTAG	0.199 z-score
TCAAGTTTCTCTTTCCTACTGTGCTAG	7.16 z-score
TTAGGACGGCTTCTCCTTTAGTGCTAG	-0.143 z-score
TTAGGTCTCGGTAACGGTTAGTGCTAG	0.634 z-score
TTAGATTGCAGTTCCGATTAGTGCTAG	0.502 z-score
GACGGTATCGACACTGTGGACGTGCTA	-0.329 z-score
TTAGGTCTCGGTTTCGGCTAGTGCTAG	7.54 z-score
AGTTTTTCATTTTTTTTCATGTGCTAG	1.18 z-score
TTAGGTTTCGGGACTGGGATAGTGCTA	4 z-score
TTAGGTTTCGGGTTTCGGGTAGTGCTA	12 z-score
TTAGGGATCGACTATCGGTTAGTGCTA	-0.16 z-score
GTTTTTTTTTAATTGAAATCGTGCTAG	2.16 z-score
TTAGGCTTCCTACTGCTTTAGTGCTAG	0.0621 z-score
TTCGAACTGAGTATCGATTAGTGCTAG	0.498 z-score
TCACATTTTCTCTTATTACTGTGCTAG	1.66 z-score
TCAAATTGTCTTTTCACACTGTGCTAG	0.161 z-score
